Results pooled from the literature.
Protocols differ between the studies behind these lines.
Medium: plasma

| Compound | test | system | setting | quantity | value |
| --- | --- | --- | --- | --- | --- |
| CC[C@H](C)[C@@H]1NC(=O)[C@H](Cc2ccc(O)cc2)NC(=O)CCCSC[C@@H](C(=O)N(CC(=O)N[C@@H](CC(C)C)C(=O)NCC(N)=O)Cc2ccc(F)cc2)NC(=O)[C@H](CC(N)=O)NC(=O)[C@H](CCC(N)=O)NC1=O |  | healthy human | intranasal, 50 µg every 3 h, after last dose | tmax median | 0.25 h |
| CN1CCC[C@]1(C)/C=C/S(=O)(=O)NC(=O)Nc1c2c(cc3c1CCC3)CC=C2 |  | human | oral, 50 mg twice daily of parent drug, day 14, metabolite of dosed drug | Tmax at first steady-state dose | 3 h |
| COc1cc2c(cc1OC)[C@H]1C[C@@H](O)[C@H](CC(C)C)CN1CC2 | item: non-deuterated analyte | healthy human male | oral, 25 mg, median, [14C]-tetrabenazine dosed | Tmax | 1.5 h |
| CCCCCCCOc1ccc(CC[C@](N)(CO)COP(=O)(O)O)cc1C(F)(F)F |  | healthy human males | oral, 0.75 mg, day 1, median | Tmax | 12 h |
| COc1cc2c(cc1O)CCN1C[C@@H](CC(C)C)[C@H](O)C[C@H]21 | item: non-deuterated analyte | healthy human male | oral, 25 mg, median, [14C]-tetrabenazine dosed | Tmax | 2.5 h |
| CN1CCC[C@]1(C)/C=C/S(=O)(=O)NC(=O)Nc1c2c(cc3c1CCC3O)CCC2 (stereo partly shown) |  | human | oral, 100 mg twice daily of parent drug, day 14, metabolite of dosed drug | Tmax at second steady-state dose | 3 h |
| O=C(O)[C@H]1O[C@@H](N(Cc2ccc(C(F)(F)F)nc2)c2ccc(Cc3c[nH]c4ncc(Cl)cc34)cn2)[C@H](O)[C@@H](O)[C@@H]1O |  | human, male | oral, 400 mg of [14C]-pexidartinib single dose, as metabolite, median | Tmax | 3 h |
| CN1CCC[C@]1(C)/C=C/S(=O)(=O)NC(=O)Nc1c2c(cc3c1CC(O)C3)CCC2 (stereo partly shown) |  | human | oral, 50 mg twice daily of parent drug, day 14, metabolite of dosed drug | Tmax at second steady-state dose | 4 h |
| CNc1nc(N)nc2c1ncn2C1OC(COP(=O)(O)NC(C)C(=O)O)C(O)C1(C)F (stereo not shown) |  | healthy adult human | oral, 550 mg, day 12, median, fasted | Tmax | 1 h |
| CN(C(=O)C(C)(C)c1cc(C(F)(F)F)cc(C(F)(F)F)c1)c1cnc(N2C[C@H]3COC(O)CN3C[C@H]2CO)cc1-c1ccc(F)cc1CO (stereo partly shown) |  | human | oral, 120 mg, median | Tmax | 2.01 h |

Excerpt of the above:
| Compound | test | system | setting | quantity | value |
| --- | --- | --- | --- | --- | --- |
| CCCCCCCOc1ccc(CC[C@](N)(CO)COP(=O)(O)O)cc1C(F)(F)F |  | healthy human males | oral, 0.75 mg, day 1, median | Tmax | 12 h |
